Published values from different studies.
Numbered parts are unrelated; each lists some results of a single study.

Sample 1 — technique: aptamer microarray, sandwich; form: DNA with 2'F-ANA; medium: in vitro; tested at: 200 nM; added: Cy3 exosite-II aptamer, 400 nM; direction: higher = stronger binding; strand: GGTTGGTGTGGTTGG
Target: Prothrombin, mature alpha-thrombin (F2, Homo sapiens, UniProt P00734)
Notes: whole 15-mer aptamer, many near background
Modification	mean fluorescence intensity [a.u.]
2'F-ANA at 1 2 4 10 11 12 14	46.7
2'F-ANA at 1 2 3 4 5 8 9 12 13	76.4
2'F-ANA at 1 2 3 6 7 10 12 14	50.4
2'F-ANA at 4 5 11 13	70.1
2'F-ANA at 4 5 9 10 12 13	47.9
2'F-ANA at 1 2 3 7 8 10 11 13 14 15	65
2'F-ANA at 1 2 3 5 8 13	53.3
2'F-ANA at 3 5 11 12 15	197
2'F-ANA at 2 3 4 6 7 8 12	1000
2'F-ANA at 1 4 5 6 9 12 13 15	72
2'F-ANA at 1 3 5 6 8 9 11 12 14	66
2'F-ANA at 1 2 4 6 7 8 9 10 11 12 15	73.9
2'F-ANA at 2 3 7 8 9 10 12 13 14	309
2'F-ANA at 1 10 11 13 14	80.3
2'F-ANA at 1 2 6 7 9 13 14	55.5
2'F-ANA at 1 2 3 5 6 7 9 10 11 12 13	73.4
2'F-ANA at 1 2 3 5 6 9 10 12 13	79.1
2'F-ANA at 7 9 12 15	801
2'F-ANA at 1 2 5 7 8 9 10 12 14 15	46.1
2'F-ANA at 4 6 10 11 15	87
2'F-ANA at 2 3 6 7 9 10 12 14 15	248
2'F-ANA at 7 13 15	500
2'F-ANA at 2 3 5 6 8 9 10 13 14	50
2'F-ANA at 5 10 12 13	47
2'F-ANA at 1 4 5 6 9 10 14	56.9

Sample 2 — technique: protein binding microarray; form: double-stranded DNA, one strand shown; medium: in vitro; tested at: not given; relative to: not given; direction: higher = stronger binding
Target: Histone acetyltransferase KAT6A, winged helix 2, GST fusion (KAT6A, Homo sapiens, UniProt Q92794, residues 85-181)
Notes: 8-mer, flanks averaged, mean of 2 arrays, mostly near background
Residues (chain): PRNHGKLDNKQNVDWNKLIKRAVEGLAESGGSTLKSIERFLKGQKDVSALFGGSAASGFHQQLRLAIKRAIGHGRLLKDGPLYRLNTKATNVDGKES
Strand	E-score
GTTCACGA	0.0227
GCAAGTGA	-0.0893
ACCGCTCT	-0.0372
GCTGCACC	0.0596
CTAACGCC	0.0217
AACCTTCA	-0.0303
GTCGTACA	-0.15
GTAGGAAA	-0.00592
GCAGTCTA	-0.114
ACCTGAGT	0.0279
TTCGACAA	0.0851
CATGACAG	-0.0686
CTCCGCCC	0.232
GTACAACA	0.0295
ACCCTTCC	-8.5e-05
AAAACCAC	-0.1
GCTGAACA	0.0831
GACGCGAC	0.0508
TACTTTGA	0.0804
CTGGCAGA	0.0283
AAGCCATT	-0.0751
AAGAACGT	-0.0745

Sample 3 — technique: protein-binding microarray; form: double-stranded DNA, one strand shown; medium: in vitro; tested at: 2540 nM top; notes: 60-bp whole probe; added: salmon DNA 0.4 mg/ml; relative to: random background probes; direction: higher = stronger binding; all sequences stand within: GCCTAGCAC … GTCTTGATTCGCTTGACGCTGCTG
Target: Interferon regulatory factor 3, full length, phosphomimetic (IRF3, Homo sapiens, UniProt Q14653, residues 1-427, S386D/S396D/S398D/S402D/T404D/S405D)
Construct (chain): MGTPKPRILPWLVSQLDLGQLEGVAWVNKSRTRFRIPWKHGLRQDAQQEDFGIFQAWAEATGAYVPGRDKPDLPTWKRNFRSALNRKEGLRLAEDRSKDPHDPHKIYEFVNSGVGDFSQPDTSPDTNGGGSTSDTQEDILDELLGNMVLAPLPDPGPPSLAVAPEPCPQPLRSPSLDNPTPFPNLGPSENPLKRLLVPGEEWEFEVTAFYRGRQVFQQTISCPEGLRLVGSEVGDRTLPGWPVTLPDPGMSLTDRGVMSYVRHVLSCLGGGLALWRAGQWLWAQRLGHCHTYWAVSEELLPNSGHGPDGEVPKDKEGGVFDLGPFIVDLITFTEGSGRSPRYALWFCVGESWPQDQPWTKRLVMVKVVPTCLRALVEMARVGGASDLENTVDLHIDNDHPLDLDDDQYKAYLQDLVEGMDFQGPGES
Strand	fitted relative affinity [z-score]
TTAGGTTTCGACATTGGGTTAGTGCTA	2.76
TGGCTTTCCTTTATGTCCTGGTGCTAG	3.81
TCACCCCTAGGGGGCAGTATGTGCTAG	0.134
GACGGACTGGTTCTCCTGACGTGCTAG	0.0142
TTAGATCTCAGTATCGGTTAGTGCTAG	2
TCAAAAATGATGTTTTAGACTGTGCTA	-0.325
GACGGATTCGGTATCGGGACGTGCTAG	3.58
TTAGGACTGGACACTGGATTAGTGCTA	-0.568
TCACGTTACTTCCTCAAACTGTGCTAG	0.542
TTGTGTCTGGGCATTTTTTTAGTGCTA	-0.887
TTAGGTATCGGTAGCGGTTAGTGCTAG	1.53
GGGCATTTGGAAAATGAAAATGTGCTA	0.274
TTAGGTTTCGACTCTCGGTTAGTGCTA	3.87
TTAGTTCTCCTTTTCCTTTAGTGCTAG	5.16
GCCGGACTGGACTATCGGGACGTGCTA	0.0581
GGGATTTTGTCCTCCCCTCCCGTGCTA	-0.0846
GACCGACTGCTACTGCTGACGTGCTAG	-0.366
TCATCTTCAGCACTCGGACTGTGCTAG	0.73
GACCATATCAGTTTCGAGACGTGCTAG	3.57
TAAGGTTTCGGTCTCGGTTAGTGCTAG	8.61

Sample 4 — technique: RNA Bind-n-Seq; form: RNA; medium: in vitro; tested at: 365 nM; relative to: no-protein control; direction: higher = stronger binding
Target: RNA binding protein fox-1 homolog 2, RRM domain, GST-SBP tag (RBFOX2, Homo sapiens, UniProt O43251-10, residues 100-194)
Notes: natural RNA segment, single round, ends assumed
All sequences stand within: GGGAGUUCUACAGUCCGACGAUC … UGGAAUUCUCGGGUGCCAA
Construct (chain): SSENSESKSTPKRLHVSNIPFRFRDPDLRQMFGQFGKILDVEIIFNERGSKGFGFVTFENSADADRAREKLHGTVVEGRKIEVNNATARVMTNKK
Strand	RBNS enrichment (R)
ACCACCAGGGGCUCUGAACUGCAGCUGAUGUUAUCAGCAGGCCAUGCAUCCUGCUGCCAAGGGUGGACACGGCUGCAGACUUCUGGGGGAAUUGUCGCCUCCUGCUCUUU	0.556
CCUGUGGGCCUGCUCAGCAUGACUUCCAGGACCCCACUGUUCUGGACUGACAUCCCAGGUGUCACAGGCUCAGGGAGUGGCACCAGGUCACCUCUCCAGGGACUGAGCAU	6.32
GCCCACACUACAGGCCCGGAGCUUUGGGGCUGGGUACAUGUGCCAAGCCUCCCUCCCUGGGCUACAGGGCCUCCGGUCCUGCUCCCAUACCCAGGUUUGGUUCCUCUAGG	0.266
UUGCUUCAAGCCAGUUUUUCCUUUUUACCCUCCCCCAAUCCAUGAAAGCCUAAGUGUAAAUAUAUAUCUCUUUAUAUUUGUCUAGUCUGGUAAAAGGGAAUUCAGAAGAU	0.361
AGGCCCCUGACAGUGGAAACAGAAGAUGCUAAGCUGUCAUAGGUGGAGCAGGAUCCUAAGGACGCACAAUAUCAGUUGUGCGUGCUGUAAAGGGACAAACCGAGGAAGUA	0.291
AAUGGAAAGAAAGCAUCCCCCCACCCCCUCUGGGUUCGAGCGUUCACCGUCUCCGCACUGUGCCUGCGGGUCACCAGAGACAAGGCCUUCCUCAGGGACGUACAGGCUGU	0.646
UCAGCUCACACAAUUCCAAAGGAAACUGGCCUUGCUGAGGGUGCUGCCUGCCUGCGAGGCACCUGCCUUGCAGCAGGCUCUCAGCCCUUCCCUCUGAGCUGCUCAGAGAG	0.21
UUUGCUUAAUUCCUCAGGCUUUGCGAUUUAAGGAGGAGCUGCCUUAAAAAAAAAUAAAGGCCUUAUUUUGCAAUUAUGGGAGUAAACAAUAGUCUAGAGAAGCAUUUGGU	3.15
CCUGUCAGUUCAGAAAAAAUGUGAAGUCUACUUUAGUAUUCCUGUAAUACUAAACCGUUGAGUUUCUAAAUAUUUAUUUAUUCUAACAAAAAGCAAUUACUACAAAUGGA	0.407
AUUCUGUUAGAUUUUUUUAUUGGACUUACAUAAUGCCGUUUAUUUGAGAAACACAUAACAUCUCUCCUUUCUAUGAAAAAUUUUUUAAAAGGUGGUUAAAAUUGCCUUUA	0.835
ACUUCUUGCCCAGGAGUGUGCACAGAUGUAAGAUAAUUUUGUGAAAUAAUGUACCAUAGACUCUCACCAACUGUAUAUACCUGUACAUAUCAGAAGCAAAUAAAGAGCUC	0.265
GCUGCAUUAUUCCAGUCAGGACUGUGAUAACUUGCUGCCAGCCCCACUCAACUUUCAGUUGGCUCUGUGUCAGUUUUCCAUUCAGUGUUAACUACUUGUUACUGCCAUGC	1.02

For quick reference, copied from above (sample 4):
Strand	RBNS enrichment (R)
AGGCCCCUGACAGUGGAAACAGAAGAUGCUAAGCUGUCAUAGGUGGAGCAGGAUCCUAAGGACGCACAAUAUCAGUUGUGCGUGCUGUAAAGGGACAAACCGAGGAAGUA	0.291
AAUGGAAAGAAAGCAUCCCCCCACCCCCUCUGGGUUCGAGCGUUCACCGUCUCCGCACUGUGCCUGCGGGUCACCAGAGACAAGGCCUUCCUCAGGGACGUACAGGCUGU	0.646
UCAGCUCACACAAUUCCAAAGGAAACUGGCCUUGCUGAGGGUGCUGCCUGCCUGCGAGGCACCUGCCUUGCAGCAGGCUCUCAGCCCUUCCCUCUGAGCUGCUCAGAGAG	0.21
UUUGCUUAAUUCCUCAGGCUUUGCGAUUUAAGGAGGAGCUGCCUUAAAAAAAAAUAAAGGCCUUAUUUUGCAAUUAUGGGAGUAAACAAUAGUCUAGAGAAGCAUUUGGU	3.15
CCUGUCAGUUCAGAAAAAAUGUGAAGUCUACUUUAGUAUUCCUGUAAUACUAAACCGUUGAGUUUCUAAAUAUUUAUUUAUUCUAACAAAAAGCAAUUACUACAAAUGGA	0.407
